Measured values from different studies.
“And” joins repeats or separate records; there may be more than shown.
Rac GTPase-activating protein 1: Rac GTPase-activating protein 1 (Homo sapiens, UniProt Q9H0H5)
USP14: Ubiquitin carboxyl-terminal hydrolase 14 (USP14, Homo sapiens, UniProt P54578)
Rab GDP dissociation inhibitor beta with Rab1A: Rab GDP dissociation inhibitor beta, with Rab1A (Homo sapiens, UniProt P50395)
GRIN1/GRIN2B: Glutamate NMDA receptor; GRIN1/GRIN2B (GRIN1/GRIN2B, Homo sapiens, UniProt Q05586+Q13224)
ELANE: Neutrophil elastase (ELANE, Homo sapiens, UniProt P08246)
F12: Coagulation factor XII (F12, Homo sapiens, UniProt P00748)
AVPR1A: Vasopressin V1a receptor (AVPR1A, Homo sapiens, UniProt P37288)

Structure (SMILES)	target	test	test system	conditions	inhibition
CCOC(=O)C(Sc1nnc(-c2c[nH]c3ccccc23)n1C)C(=O)OCC	Rac GTPase-activating protein 1	enzyme activity, inhibitor, ADP detection		10 µM	87%
Clc1cccc2c(NCCCN3CCOCC3)cnnc12	USP14	enzyme activity, inhibitor		17 µM	25%
C#CC[C@@]1(O)C[C@@H](C)N2CCc3cc(OCc4cc(C)cc(C)c4)c(OCc4cc(C)cc(C)c4)cc3[C@H]2C1	Rab GDP dissociation inhibitor beta with Rab1A	GDI2-Rab1A interaction, NanoLuc complementation		6.25 µM	82.5%
CC(C)C[C@@H](NC(=O)C(=O)O)C(=O)O	KDM4E (Homo sapiens, UniProt B2RXH2)	H3K9me3 demethylation, FDH-coupled		concentration not given	14%
CC(=O)C12NC(C)(C)CC1(C)C(=O)C1=C2c2c(c3c4n2C(C)(C)CC2=C4C4(CC(C)(C)NC(C)(C4)C2=O)CC3(C)C)C(=O)C(C)(C)N1 (single isomer, unassigned; (+))	GRIN1/GRIN2B	ion current, antagonist, whole-cell patch clamp	HEK293T	10 µM	2.86%
CC(C)(C)CNC(=O)C[C@H](NC(=O)CCc1ccccc1)C(=O)N[C@@H](Cc1cccnc1)C(=O)NCc1ccccc1Cl	ELANE	enzyme activity, inhibitor		100 µM	1%
Cc1ccc(C(C2=C(O)CC(C)(C)CC2=O)C2=C(O)CC(C)(C)CC2=O)o1	Rac GTPase-activating protein 1	enzyme activity, inhibitor, ADP detection		20 µM	25.1%
CN(Cc1ccc(/C=C/C(=O)NO)cc1)CC12CC3CC(CC(C3)C1)C2	human AT2 receptor	radioligand binding		0.05 µM	45%
CCOC(=O)c1cnc2c(C)cc(C)cc2c1NCCCN(C)C	Rac GTPase-activating protein 1	enzyme activity, inhibitor, ADP detection		20 µM	28.2%
CCOC(=O)C(C#N)C1(O)C(=O)c2ccccc2C1=O (stereo not drawn)	USP14	enzyme activity, inhibitor		17 µM	43%
COc1ncc2nc(C)n(Cc3ncc(S(N)(=O)=O)cc3F)c2c1-c1ccccc1	GRIN1/GRIN2B	antagonist, cell-based		10 µM	-1.74%
Cl.Cl.N[C@@H](C(=O)N1CCCC1)C1CCN(c2nccc3c(-c4ncc(Cl)cc4Cl)cccc23)CC1	PADI4 (Homo sapiens, UniProt Q9UM07)	enzyme activity, inhibitor		75.9 pM, added: Ca2+ 0.4 mM	-6.37% and 1.41% and -7.98%
Cc1ccc(N)cc1C(=O)N[C@H](C)c1cccc2ccccc12	Replicase polyprotein 1ab, papain-like protease (rep, Porcine epidemic diarrhea virus, UniProt P0C6Y4)	enzyme activity, inhibitor, FRET		10 µM	65.5%
C=CC(=O)N1Cc2nc(-c3cc(-c4cc(Cl)cnc4Cl)c(F)cc3F)n(-c3ccncn3)c2C1	5'-AMP-activated protein kinase catalytic subunit alpha-1, with beta2, gamma3 (PRKAA1, Homo sapiens, UniProt Q13131)	kinome panel		1 µM	10.3%
COC(=O)C(C#N)=Cc1ccc(C)o1	USP14	enzyme activity, inhibitor		17 µM	12%
C[C@H](NC(=O)[C@H](CC(=O)NCC(C)(C)C)NC(=O)CCc1ccccc1)C(=O)NCc1ccccc1Cl	F12	enzyme activity, inhibitor		100 µM	38%
COc1ccc2c(c1)CCc1sc(N)nc1-2	Rac GTPase-activating protein 1	GAP activity, malachite green phosphate		concentration not given, orthogonal retest	72.2%
C=CC(=O)Nc1cccc(-c2cnc3[nH]cc(C(=O)NC(C)(C)C)c3n2)c1	PRKCG (Homo sapiens, UniProt P05129)	enzyme activity, inhibitor		0.1 µM	31%
O=c1cnnc(N/N=C/C=C/c2ccccc2)[nH]1	USP14	enzyme activity, inhibitor		17 µM	3%
CC(=O)c1ccc2c3c(cccc13)NC(C)=N2	Rac GTPase-activating protein 1	enzyme activity, inhibitor, ADP detection		10 µM	26.9%
COc1ccc(C#CC2=C[C@H]3C[C@@]4(OC(=O)C=C24)[C@H]2CC[C@H](C(OC)OC)N32)cc1	AVPR1A	ligand displacement, radioligand		10 µM	-24%
Cc1ccc(CNC(=O)[C@H](CCc2ccccc2)NC(=O)[C@H](CC(=O)NCC(C)(C)C)NC(=O)c2ccc(OCc3ccccc3)cc2)cc1	F12	enzyme activity, inhibitor		100 µM	34%
O=C(O)C1Nc2ccc(Cl)cc2C2C=CCC12 (stereo not drawn)	Rac GTPase-activating protein 1	GAP activity, malachite green phosphate		concentration not given, orthogonal retest	59.5%

Structure (SMILES)	target	test	test system	conditions	inhibition
NC(=S)N/N=C1\C(=O)Nc2ccccc21	USP14	enzyme activity, inhibitor		17 µM	8%
O=C1c2sc(-c3ccc(N4CCC(CO)CC4)nc3F)nc2CCN1c1cccnc1	AVPR1A	ligand displacement, radioligand		1 µM	-2%
Cc1ccc(-c2nn(-c3ccc(S(C)(=O)=O)cc3)cc2/C=N/N=C2/NC(=O)CS2)cc1	EGFR (Homo sapiens, UniProt P00533, L858R)	kinase activity, inhibitor		0.1 µM	47.9%
CN(C)C/C=C/C(=O)Nc1ccc2nc(NCCCCCN(C)C)nc(NCCCCCCN(C)C)c2c1	SETD7 (Homo sapiens, UniProt Q8WTS6)	enzyme activity, inhibitor, radiometric		50 µM	59%
COc1cc(N=Nc2ccc(C)cc2[N+](=O)[O-])c(C)cc1N=Nc1ccc(N(C)CCCN)cc1	Histone acetyltransferase RTT109, with Vps75 (Saccharomyces cerevisiae, UniProt Q07794)	H3K56 and H3K27 acetylation, slot blot		concentration not given	no inhibition
O=C(Nc1ccc(C(F)F)cc1)[C@H](CC1CCCCC1)Nc1nn2c(=O)ccnc2s1	PPP1CA (Homo sapiens, UniProt P62136)	enzyme activity, inhibitor		10 µM	1%
O=C(NCCCCc1ccccc1)n1c(=O)oc2cc(-c3ccc(F)cc3)ccc21	PTGS1 (Homo sapiens, UniProt P23219)	enzyme activity, inhibitor		10 µM	-6.1%
C[Si]1(C[C@H](CN)CC(=O)O)CCCC1	GABAA receptor, rat	binding, radioligand binding		70 µM, added: [3H]flunitrazepam	7%
Cn1c(CNc2ccccc2Cl)nc2ccccc21	Rac GTPase-activating protein 1	GAP activity, malachite green phosphate		concentration not given, orthogonal retest	32.6%
NC1=CC(=O)c2ccccc2C1=O	USP14	enzyme activity, inhibitor		17 µM	69%
Cc1cc(C)cc(COc2cc3c(cc2OCc2cc(C)cc(C)c2)C2CC(O)CC(C)N2CC3)c1 (stereo not drawn)	Rab GDP dissociation inhibitor beta with Rab1A	GDI2-Rab1A interaction, NanoLuc complementation		6.25 µM	85.4%
C[Si](C)(C)C[C@H](CN)CC(=O)O	GABAA receptor, rat	binding, radioligand binding		250 µM, added: [3H]flunitrazepam	5%
Clc1ccc(NCc2ccc(Br)cc2)cc1	Rac GTPase-activating protein 1	enzyme activity, inhibitor, ADP detection		10 µM	99.2%
COCC(=O)N1CCc2cc(-c3csc(NC(=O)c4cc(OC)cc(OC)c4)n3)ccc21	SIGMAR1 (Homo sapiens, UniProt Q99720)	cell-free assay		10 µM	-20%
C[C@H](NC(=O)[C@H](CC(=O)NCC(C)(C)C)NC(=O)C(=O)c1c[nH]c2ccccc12)C(=O)NCc1ccc(F)cc1F	ELANE	enzyme activity, inhibitor		100 µM	-4%
O=C1CCCC2=C1C1(O)C(=O)c3ccccc3C1(O)O2 (stereo not drawn)	USP14	enzyme activity, inhibitor		17 µM	79%
CS(=O)(=O)Nc1cccc(-c2csc3cnc(Nc4ccc(N5CCN(CCCCCOc6cccc7c6C(=O)N(C6CCC(=O)NC6=O)C7=O)CC5)cc4)nc23)c1 (stereo not drawn)	MASTL (Homo sapiens, UniProt Q96GX5)	probe labelling, inhibitor, KiNativ chemoproteomics	MOLT-4	1 µM	24.4%
CC1=NN(c2ccc(N)cc2)C(=O)C1	USP14	enzyme activity, inhibitor		17 µM	91%
O=C(CN1CCO[C@@H](COc2cccc(Cl)c2)C1)N1CCc2ccccc21	HTR7 (Homo sapiens, UniProt P34969)	radioligand binding		concentration not given, added: [3H]LSD	-4%
CCn1cc(C(=O)O)c(=O)c2c(N)c(F)c(NC3CCCCC3)cc21	BUB1B (Homo sapiens, UniProt O60566)	kinase activity		0.1 µM, added: ATP at Km	25.5%
COc1ccc(C[C@H](NC(=O)Cc2cccc(Oc3ccccc3)c2)C(=O)N[C@@H](Cc2c[nH]c3ccccc23)C(=O)NCc2ccc(C)cc2)cc1OC	ELANE	enzyme activity, inhibitor		100 µM	-7%
CC(=O)N1C(=O)NC(C)=C(C(=O)OCC(C)C)[C@H]1c1cccc([N+](=O)[O-])c1	Cacna1c (Rattus norvegicus, UniProt P22002)	ion current, inhibitor, patch clamp	HEK293	10 µM	~80%

Repeated from above:
Structure (SMILES)	target	test	test system	conditions	inhibition
Cn1c(CNc2ccccc2Cl)nc2ccccc21	Rac GTPase-activating protein 1	GAP activity, malachite green phosphate		concentration not given, orthogonal retest	32.6%
NC1=CC(=O)c2ccccc2C1=O	USP14	enzyme activity, inhibitor		17 µM	69%
Cc1cc(C)cc(COc2cc3c(cc2OCc2cc(C)cc(C)c2)C2CC(O)CC(C)N2CC3)c1 (stereo not drawn)	Rab GDP dissociation inhibitor beta with Rab1A	GDI2-Rab1A interaction, NanoLuc complementation		6.25 µM	85.4%
C[Si](C)(C)C[C@H](CN)CC(=O)O	GABAA receptor, rat	binding, radioligand binding		250 µM, added: [3H]flunitrazepam	5%
Clc1ccc(NCc2ccc(Br)cc2)cc1	Rac GTPase-activating protein 1	enzyme activity, inhibitor, ADP detection		10 µM	99.2%
COCC(=O)N1CCc2cc(-c3csc(NC(=O)c4cc(OC)cc(OC)c4)n3)ccc21	SIGMAR1 (Homo sapiens, UniProt Q99720)	cell-free assay		10 µM	-20%
C[C@H](NC(=O)[C@H](CC(=O)NCC(C)(C)C)NC(=O)C(=O)c1c[nH]c2ccccc12)C(=O)NCc1ccc(F)cc1F	ELANE	enzyme activity, inhibitor		100 µM	-4%
